Measured values of several laboratories.
Numbered parts are unrelated; each lists some results of a single study. “And” joins repeats or separate records; there may be more than shown.
Chain of UniProt P05164 (whole entry, looked up): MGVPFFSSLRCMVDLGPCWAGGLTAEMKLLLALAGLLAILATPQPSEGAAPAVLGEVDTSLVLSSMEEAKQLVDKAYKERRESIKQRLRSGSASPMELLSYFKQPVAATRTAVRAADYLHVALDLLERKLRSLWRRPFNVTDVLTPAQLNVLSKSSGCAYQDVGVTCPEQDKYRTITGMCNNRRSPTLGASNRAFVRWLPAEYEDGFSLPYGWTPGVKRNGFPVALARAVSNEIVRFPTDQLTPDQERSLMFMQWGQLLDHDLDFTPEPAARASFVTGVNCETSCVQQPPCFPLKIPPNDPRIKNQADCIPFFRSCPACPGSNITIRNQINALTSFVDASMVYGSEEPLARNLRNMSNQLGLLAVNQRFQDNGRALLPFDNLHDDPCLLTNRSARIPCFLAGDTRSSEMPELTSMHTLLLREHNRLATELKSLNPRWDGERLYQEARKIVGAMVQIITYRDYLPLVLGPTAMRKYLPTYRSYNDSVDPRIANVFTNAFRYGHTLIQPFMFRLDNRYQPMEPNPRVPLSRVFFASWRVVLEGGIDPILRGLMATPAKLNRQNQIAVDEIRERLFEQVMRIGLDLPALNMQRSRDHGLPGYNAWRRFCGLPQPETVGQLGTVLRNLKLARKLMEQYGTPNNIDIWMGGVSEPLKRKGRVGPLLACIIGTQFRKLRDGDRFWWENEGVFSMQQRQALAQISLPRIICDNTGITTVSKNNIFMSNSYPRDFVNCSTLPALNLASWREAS
Chain of UniProt O08590 (whole entry, looked up): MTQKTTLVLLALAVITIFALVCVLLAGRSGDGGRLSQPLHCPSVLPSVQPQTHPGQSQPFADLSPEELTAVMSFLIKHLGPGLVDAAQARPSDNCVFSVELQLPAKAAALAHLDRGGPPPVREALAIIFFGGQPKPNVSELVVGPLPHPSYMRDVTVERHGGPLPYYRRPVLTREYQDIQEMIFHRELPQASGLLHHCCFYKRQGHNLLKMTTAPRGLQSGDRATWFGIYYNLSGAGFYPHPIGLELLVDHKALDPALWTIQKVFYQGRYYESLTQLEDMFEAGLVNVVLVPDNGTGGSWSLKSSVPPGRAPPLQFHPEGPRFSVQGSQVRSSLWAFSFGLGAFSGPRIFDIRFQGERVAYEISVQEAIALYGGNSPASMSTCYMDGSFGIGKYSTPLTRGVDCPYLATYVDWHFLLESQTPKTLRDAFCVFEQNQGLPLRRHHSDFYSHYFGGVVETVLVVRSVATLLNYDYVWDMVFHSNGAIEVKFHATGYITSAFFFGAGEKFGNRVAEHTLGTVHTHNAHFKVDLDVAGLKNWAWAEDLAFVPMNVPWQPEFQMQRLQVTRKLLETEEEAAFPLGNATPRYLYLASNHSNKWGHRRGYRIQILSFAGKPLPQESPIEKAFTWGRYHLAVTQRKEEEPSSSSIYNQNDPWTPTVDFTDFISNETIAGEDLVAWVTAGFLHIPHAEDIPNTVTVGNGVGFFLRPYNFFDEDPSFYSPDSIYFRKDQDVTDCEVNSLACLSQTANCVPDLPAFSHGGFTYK
Chain of UniProt O70423 (whole entry, looked up): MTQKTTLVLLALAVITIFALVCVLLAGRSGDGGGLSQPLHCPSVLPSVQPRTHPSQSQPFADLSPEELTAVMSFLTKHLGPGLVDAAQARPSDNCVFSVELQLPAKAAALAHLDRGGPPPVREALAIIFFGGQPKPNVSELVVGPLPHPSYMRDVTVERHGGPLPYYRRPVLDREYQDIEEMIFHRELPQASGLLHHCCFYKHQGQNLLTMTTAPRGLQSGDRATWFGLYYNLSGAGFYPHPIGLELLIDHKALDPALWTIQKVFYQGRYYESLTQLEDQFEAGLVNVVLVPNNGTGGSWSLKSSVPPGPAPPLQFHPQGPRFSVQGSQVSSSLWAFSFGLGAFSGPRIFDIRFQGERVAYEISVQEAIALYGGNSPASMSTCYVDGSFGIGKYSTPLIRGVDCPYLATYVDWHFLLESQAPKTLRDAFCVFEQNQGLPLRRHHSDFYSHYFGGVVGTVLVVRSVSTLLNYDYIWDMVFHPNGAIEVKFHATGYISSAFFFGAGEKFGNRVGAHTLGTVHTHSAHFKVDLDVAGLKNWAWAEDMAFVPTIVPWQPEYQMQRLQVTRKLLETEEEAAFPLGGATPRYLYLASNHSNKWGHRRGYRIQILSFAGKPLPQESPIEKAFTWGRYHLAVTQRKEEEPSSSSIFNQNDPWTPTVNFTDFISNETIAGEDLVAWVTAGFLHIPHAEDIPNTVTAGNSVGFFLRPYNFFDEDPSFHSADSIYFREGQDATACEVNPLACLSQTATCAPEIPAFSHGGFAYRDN
Chain of UniProt P27338 (whole entry, looked up): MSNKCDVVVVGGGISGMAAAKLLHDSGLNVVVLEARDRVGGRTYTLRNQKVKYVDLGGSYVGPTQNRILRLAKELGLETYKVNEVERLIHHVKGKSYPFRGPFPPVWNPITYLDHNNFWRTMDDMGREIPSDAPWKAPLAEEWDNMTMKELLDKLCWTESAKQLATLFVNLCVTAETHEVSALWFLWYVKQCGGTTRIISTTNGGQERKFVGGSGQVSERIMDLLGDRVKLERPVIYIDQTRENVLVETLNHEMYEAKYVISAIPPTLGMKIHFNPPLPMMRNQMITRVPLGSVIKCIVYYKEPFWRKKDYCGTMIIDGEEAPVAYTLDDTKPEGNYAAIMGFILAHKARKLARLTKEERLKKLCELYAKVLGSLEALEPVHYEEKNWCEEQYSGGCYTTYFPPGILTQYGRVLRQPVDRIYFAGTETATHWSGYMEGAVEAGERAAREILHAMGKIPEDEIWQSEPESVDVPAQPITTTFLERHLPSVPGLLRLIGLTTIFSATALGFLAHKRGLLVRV

Block 1
Structure (SMILES): Cc1ccc(O)c(C)c1-c1cnc2[nH]c(-c3cnc(N4CC5(CC(CN6CCN(c7ccc(NC8CCC(=O)NC8=O)cc7F)CC6)C5)C4)nc3)cc2c1C#N (centres unmarked)
Target: Membrane-associated tyrosine- and threonine-specific cdc2-inhibitory kinase (PKMYT1, Homo sapiens, UniProt Q99640)
Chain of UniProt Q99640 (whole entry, looked up): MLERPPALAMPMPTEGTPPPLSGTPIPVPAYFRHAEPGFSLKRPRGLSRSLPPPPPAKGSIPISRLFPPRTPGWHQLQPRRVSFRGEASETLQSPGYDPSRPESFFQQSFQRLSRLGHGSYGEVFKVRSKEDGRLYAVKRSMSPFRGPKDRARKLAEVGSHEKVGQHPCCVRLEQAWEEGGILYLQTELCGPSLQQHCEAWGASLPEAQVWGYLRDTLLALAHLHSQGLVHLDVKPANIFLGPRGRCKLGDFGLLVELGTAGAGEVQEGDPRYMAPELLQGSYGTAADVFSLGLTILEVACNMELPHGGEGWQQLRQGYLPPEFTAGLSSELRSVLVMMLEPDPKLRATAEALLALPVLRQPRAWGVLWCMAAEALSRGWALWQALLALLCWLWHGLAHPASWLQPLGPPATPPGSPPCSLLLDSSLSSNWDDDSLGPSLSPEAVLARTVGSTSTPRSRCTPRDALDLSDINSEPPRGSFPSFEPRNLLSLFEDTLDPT
effect on | mode | technique | concentration | inhibition
cell-free assay | inhibitor | TR-FRET | 51 pM | -1.39%
 |  |  | 0.1111 µM | 98.8%
cell-free assay | inhibitor | TR-FRET | 152 pM | 2.84%
cell-free assay | inhibitor | TR-FRET | 460 pM | 9.97%
 |  |  | 0.000152 µM | -0.84%
 |  |  | 1 µM | 99.1%
cell-free assay | inhibitor | TR-FRET | 37.04 nM | 98.1%
cell-free assay | inhibitor | TR-FRET | 12.35 nM | 92.8%

Block 2 — Structure (SMILES): CS(=O)(=O)c1ccc(OC/C(=C/F)CN)cc1.Cl
MAOA: Amine oxidase [flavin-containing] A (MAOA, Homo sapiens, UniProt P21397)
Chain of UniProt P21397 (whole entry, looked up): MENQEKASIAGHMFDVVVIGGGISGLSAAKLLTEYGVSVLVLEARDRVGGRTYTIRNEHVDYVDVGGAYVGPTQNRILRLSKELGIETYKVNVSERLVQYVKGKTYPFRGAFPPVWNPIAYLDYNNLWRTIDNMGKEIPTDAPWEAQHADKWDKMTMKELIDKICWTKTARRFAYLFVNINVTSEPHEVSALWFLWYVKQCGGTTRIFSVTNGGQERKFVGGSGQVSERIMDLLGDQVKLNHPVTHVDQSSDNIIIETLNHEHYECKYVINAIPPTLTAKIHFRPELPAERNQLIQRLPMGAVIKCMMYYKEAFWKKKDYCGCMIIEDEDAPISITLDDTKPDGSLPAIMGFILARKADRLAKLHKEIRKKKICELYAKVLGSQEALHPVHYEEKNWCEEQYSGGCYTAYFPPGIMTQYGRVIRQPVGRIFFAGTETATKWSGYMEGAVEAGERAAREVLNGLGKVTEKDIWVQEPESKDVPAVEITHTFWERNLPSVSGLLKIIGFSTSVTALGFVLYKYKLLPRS
target | effect on | mode | technique | medium | concentration | inhibition
MAOA | enzyme activity | inhibitor |  |  | 0.3704 µM | 2.81% and 6.79% and 7.34% and 1.49% and 0.0485%
Amine oxidase [copper-containing] 3 (Mus musculus, UniProt O70423) |  |  |  | mouse adipose tissue | 3 µM | 99.6%
Amine oxidase [copper-containing] 3 (Rattus norvegicus, UniProt O08590) |  |  |  | rat adipose tissue | 0.037 µM | 94.5%
MAOB (Homo sapiens, UniProt P27338) | enzyme activity | inhibitor |  |  | 30 µM | 14.2% and 11%
Myeloperoxidase (MPO, Homo sapiens, UniProt P05164) | enzyme activity | inhibitor | fluorescence |  | 3.333 µM | -5.88% and 0.726% and 0.853%
Amine oxidase [copper-containing] 3 (Rattus norvegicus, UniProt O08590) |  |  |  | rat adipose tissue | 1.694e-05 µM | -22.1%
Amine oxidase [copper-containing] 3 (Mus musculus, UniProt O70423) |  |  |  | mouse adipose tissue | 0.0002 µM | 5.43%
MAOA | enzyme activity | inhibitor |  |  | 200 pM | -3.05% and -8.33%

Further values, each from its own experiment
SMILES | tested on | assay | test system | conditions | scale | measurement | value
CO[C@H]1CC[C@H](CNc2ccc(S(=O)(=O)NC(=O)c3ccc(N4CCN(CC5=C(c6ccc(Cl)cc6)CC(C)(C)CC5)CC4)cc3Oc3cnc4[nH]ccc4c3)cc2[N+](=O)[O-])CC1 | colorectal cancer organoid sample I |  |  | 4 days |  | IC50 | > 10 µM
Cc1nc(C)c(C=[N+]([O-])C(C)(C)C)nc1C | rat cerebellar granule neurons | TUNEL |  | 300 µM, 2 h pretreatment, added: MPP+ 150 µM for 24 h |  | apoptotic cells | 34.5% and 28.1%
Cn1cc(-c2cccc(CN3CCC4(CC3)COc3c4ccc4c3CN([C@H]3CCC(=O)NC3=O)C4=O)c2)cn1 |  |  | cynomolgus monkey | intravenous, 1 mg/kg |  | Vss | 8.31 L/kg and 8.34 L/kg and 7.8 L/kg
CC(C)NC(=O)N1CCC(NC2=Nc3cc(F)ccc3N(CC(F)F)c3ccc(Cl)cc32)C1 (stereo in doubt) | sample BA colorectal tumour organoid |  |  | 0.1 µM | relative to: DMSO | viability | 99.8%

Excerpt of the above (block 2):
target | effect on | mode | technique | medium | concentration | inhibition
Amine oxidase [copper-containing] 3 (Rattus norvegicus, UniProt O08590) |  |  |  | rat adipose tissue | 1.694e-05 µM | -22.1%
MAOA | enzyme activity | inhibitor |  |  | 200 pM | -3.05% and -8.33%
Amine oxidase [copper-containing] 3 (Mus musculus, UniProt O70423) |  |  |  | mouse adipose tissue | 3 µM | 99.6%
